Experimental data of several laboratories.
Every numbered part comes from another study and shows a few of its results, in no order.

Set 1 — technique: RNA Bind-n-Seq; form: RNA; medium: in vitro; tested at: 1 µM; notes: whole 134-nt RNA, ends assumed; with: 150 mM KCl; relative to: input library; reading: higher = stronger binding
Target: Ras GTPase-activating protein-binding protein 1, RRM domain (G3BP1, Homo sapiens, UniProt Q13283)
Sequence of UniProt Q13283 (whole entry, looked up): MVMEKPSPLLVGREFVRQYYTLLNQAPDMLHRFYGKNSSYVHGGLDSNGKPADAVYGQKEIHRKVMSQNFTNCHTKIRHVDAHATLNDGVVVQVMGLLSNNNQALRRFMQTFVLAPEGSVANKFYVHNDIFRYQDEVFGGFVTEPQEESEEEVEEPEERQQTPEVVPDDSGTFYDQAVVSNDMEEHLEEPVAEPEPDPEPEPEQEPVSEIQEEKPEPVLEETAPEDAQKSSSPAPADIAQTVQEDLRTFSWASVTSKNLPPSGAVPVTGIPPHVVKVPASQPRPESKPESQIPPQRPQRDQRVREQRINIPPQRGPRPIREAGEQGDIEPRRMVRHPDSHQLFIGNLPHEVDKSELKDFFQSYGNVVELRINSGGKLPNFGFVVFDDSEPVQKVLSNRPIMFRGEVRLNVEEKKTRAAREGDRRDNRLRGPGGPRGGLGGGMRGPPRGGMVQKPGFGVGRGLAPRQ
Shared flanks, not repeated: GGGAGUUCUACAGUCCGACGAUC … UGGAAUUCUCGGGUGUCAAGG
Strand	log2 enrichment
UGGGAGGUGGAUUUGGUUUAUUUUUUUAGCUCAUUUCCAGGGGUGGGAAUUUUUUUUUAAUAUGUGUCAUGAAUAAAGUUGUUUUUGAAA	1.68
UCCUCAAGUCCUGUGCUACACAUCGUAUGUACCGAAUCGUGUGUGUGUGUGUAAAGUAUUAUGUUACGCCGUUCGGAUCUGCACUUCCAG	-0.00616
UUACGAUUAUAUCACCCGGACACACAUCAUGCUUAAGAUUCAACUGGGAGCAUACCAGGGAUGCUCUCUAACGUAAUCAAGGGAAGGUUC	-0.339
ACCAUGCAGGUGGGCAUCUAAAGGAAGUGGGGCAAGGGGGGGAUAGGGAGGGGGGUAACACUUUGGGAACAGGUGGUCCCAGGUCGUUUC	-0.464
GUCCUGUGCUACACAUCGUAUGUACCGAAUCGGGGAAAGGGGAAAAAGGGGAAAGGGGAAAGUAUUAUGUUACGCCGUUCGGAUCUGCAC	1.67
CCCAGACAACACGCACCCACACAGACACAGAGGGAAGGGGUUGGGAUGGGGACAGGGUGCACAGCAGGGCGGGGUAGGACCCCAGCCCCU	-0.0361
UGGCCCUGGUGGCAUGCGGGGAGGAAGAGGUGGCCUCAUGGAUGGUGGUGGUCCCGGUGGAAUGUUCAGAGGUGGCCGUGGUGGAGACAG	1.12
ACCAUGCAGGUGGGCAUCAUUGGGAAGUGGGGCAAGGGGGGGAUAGGGAGGGGGGUAACACUUUGGGAACAGGUGGUCCCAGGUCGUUUC	-0.401
ACAGGAAGUAAAAACAAAUGGAAAUGCUUCGGAUAGUGGCAGGGGUGGGGGUUGCUAAGGAAAGGGUGGGAUGGGAGUGGGUAAAGAGUU	0.781

Set 2 — technique: protein-binding microarray; form: double-stranded DNA, one strand shown; medium: in vitro; tested at: 250 nM; notes: 60-bp whole probe; with: salmon DNA 0.4 mg/ml; relative to: random background probes; reading: higher = stronger binding; shared flanks, not repeated: GCCTAGCAC … GTCTTGATTCGCTTGACGCTGCTG
Target: Interferon regulatory factor 7, full length, phosphomimetic (IRF7, Homo sapiens, UniProt Q92985, residues 1-503, S101K/S471D/S472D/S475D/S476D/S477D/S483D/S484D/S487D)
Construct (chain): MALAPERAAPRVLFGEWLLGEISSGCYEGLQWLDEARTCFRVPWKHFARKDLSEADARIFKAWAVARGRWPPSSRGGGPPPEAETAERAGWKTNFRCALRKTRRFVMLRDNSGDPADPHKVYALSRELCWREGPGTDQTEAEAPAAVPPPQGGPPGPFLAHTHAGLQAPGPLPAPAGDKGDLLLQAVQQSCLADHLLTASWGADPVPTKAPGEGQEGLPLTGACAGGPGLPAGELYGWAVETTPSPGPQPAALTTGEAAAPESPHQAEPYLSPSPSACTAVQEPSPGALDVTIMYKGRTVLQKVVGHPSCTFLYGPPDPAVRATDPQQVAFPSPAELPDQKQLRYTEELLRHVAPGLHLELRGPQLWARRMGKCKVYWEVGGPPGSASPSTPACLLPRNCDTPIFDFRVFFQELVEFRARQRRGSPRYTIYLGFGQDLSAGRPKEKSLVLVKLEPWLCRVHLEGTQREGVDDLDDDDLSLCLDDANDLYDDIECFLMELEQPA
Strand	log fluorescence [z-score]
TAAGGACTGCTTCTCCTTTAGTGCTAG	0.717
GAGGGTCTCGGTCTCGGGACGTGCTAG	0.434
AATGTATAACGCCATTAGCTGTGCTAG	-0.0844
GACGGACTGCTTCTCCTAACGTGCTAG	-0.0113
GACGGTTTCGGTCTCGGCACGTGCTAG	7.24
GACGATTTCGGGTATTGAGACGTGCTA	0.549
GACGATTTCGGGACTGGTGACGTGCTA	-0.0146
TTAGGTATACTACTGCTTTAGTGCTAG	-0.0519
TTAGATATCGCGACTGGATTAGTGCTA	0.0878
TTAGGTTCCGGTTTCGGTTGGTGCTAG	11.5
TCATTTTTGCAAGCTAAAACTGTGCTA	0.575
TTAGGACTGGGTATTGGTTAGTGCTAG	-0.228
CTTGCTTCCCAATTCTCTTTGTGCTAG	1.36
GACGATATCAGACTGGTGACGTGCTAG	-0.166
GACGGTCTCCTACTGCTGATGTGCTAG	-0.127
GACGGTTTCGGGTATCGGGTCGTGCTA	7.82
TACTTTCTATCTCTGTTTTTGTGCTAG	3.2
CCCAGTCTCATATTTATTAGGTGCTAG	0.659
TTAGGTTCCGGTTTCTGTTAGTGCTAG	9.18

Set 3 — technique: RNA Bind-n-Seq; form: RNA; medium: in vitro; tested at: not given; relative to: input RNA pool; reading: higher = stronger binding
Target: RING finger protein unkempt homolog, zinc fingers 1-6, GST-SBP tag (UNK, Homo sapiens, UniProt Q9C0B0, residues 30-357)
Notes: RNA with constant flanks, human-mouse chimeric sites, ends assumed
Shared flanks, not repeated: GGGAGUUCUACAGUCCGACGAUC … CAACAGAGGAUUGAGCAUCA
Construct (chain): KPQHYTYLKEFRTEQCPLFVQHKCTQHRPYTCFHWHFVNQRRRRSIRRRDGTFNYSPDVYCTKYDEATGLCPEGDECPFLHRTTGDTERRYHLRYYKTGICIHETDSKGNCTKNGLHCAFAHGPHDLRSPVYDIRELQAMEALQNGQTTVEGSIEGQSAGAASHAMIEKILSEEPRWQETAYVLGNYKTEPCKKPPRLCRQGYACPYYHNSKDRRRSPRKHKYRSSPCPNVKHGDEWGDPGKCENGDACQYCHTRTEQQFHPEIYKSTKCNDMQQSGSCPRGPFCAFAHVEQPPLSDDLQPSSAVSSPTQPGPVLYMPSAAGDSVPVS
Strand	bound/input enrichment [ratio]
UUGAAAACUGAUUCAAGCAAGUUUGAAUAUCACAAUGUUAGCUUUCUAAUUCCAUAAAAGUACUUGGUUUUUACAGUUUAUAAUCUGCAAUCCAUCAAGCGCCAUUUGUAAAGAGCAACU	0.279
AAAGUGGACUAUGGUGAGUACAUGGAUAAAAACAAUGUGAGGCGACAAGCAACAACAAUCAUAGCUGAUAACAUUAUAUUUCUGAGUGACCAGACAAAAGAAAAGGCAUAGAACGGAUGA	1.46
UGUAGUUUCUUGAUUUAGUGGCUGGGCUGCUCGGGUUUUUCCUUUAGGAAAAGCCUAAAGAUUAGGUUGUAAGAAAAACAGAAGCCAUGUUUCGAAGACCUGUGUUACAGGUAUUUCGUC	1.64
GUGACUGGUGUUAAGAUUUACCCUCAGCAAAGAAGUGCAGUAGUCACCAUAAUUCCAUCUGUGGUGAGUGCCAGUCAGAUUGUGGAGCUGGUCCCAGACCUCAGUUUAGAUACUGGGACU	0.413
GUGCCCUUCUCGCUGCUGCGGAGCCCGAGCUGGGAACACCCCUUCCGCUGGUACCCUCCGCAUAGCCGCCUCUUCGAUCAAGCUUUCGGGGUGCCCCGGUUGCCCGAUGAGUGGUCGCAG	0.0726
ACUCUUGACUCUUUCCAUCCUCUUCCUUUCCCUCUUGAUAUUCAAGGCCAUGAAUCCCAAAAUAACAGUCUUAGUGGCUAGCACCCACCCAAACUGAGAAUAAAUCCAAACUGACAACUC	0.528
UUGAAAAACACAGAUAUCAAAGUUGUUGAUUUUGGAAGUGCAACGUAUGAUGAUGAACAUCACAGUACUUUGGUGUCUACCCGGCACUACAGAGCUCCCGAGGUCAUUUUGGCUUUAGGU	0.345
GAUCAUGAACCACCAUCCAGAAAUGAAAUGAGAUUACCCAGACGAGCCAAAACAGCUGCGCUACAGAAAAGUAAACUUAACCUUGCAGAGUUCCUUAAUGAAGAUACAAGUUAAGAGAGC	0.465

Set 4 — technique: RNA Bind-n-Seq; form: RNA; medium: in vitro; tested at: 365 nM; relative to: no-protein control; reading: higher = stronger binding
Target: RNA binding protein fox-1 homolog 2, RRM domain, GST-SBP tag (RBFOX2, Homo sapiens, UniProt O43251-10, residues 100-194)
Notes: natural RNA segment, single round, ends assumed
Shared flanks, not repeated: GGGAGUUCUACAGUCCGACGAUC … UGGAAUUCUCGGGUGCCAA
Construct (chain): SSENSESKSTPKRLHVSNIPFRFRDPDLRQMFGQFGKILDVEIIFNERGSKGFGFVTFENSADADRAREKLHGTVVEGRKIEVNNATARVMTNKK
Strand	RBNS enrichment (R)
CAGGACAUCUGUGGCCCUGAGCCGGCUCUGGUCCUCGGCCUUUCCCAGCCUUCCCACAUCUUCCCAGGCCAAGAUGCAGGGGGCAGGCUGAAGAGAAAUUUGUGUGUCCU	0.488
CUGCCCCUCGAGUCGAUGGUGUCCCGCAUCUACUCAUGUGAACUGGCCUUGGCGAGGGCUGGUCUGUGCAUAGAAGGGAUAGUGGCCACACUGCAGCUGAGGCCCCAGGU	0.586
UACUAUUCUUAAAUGAAGUCCUCCCCAAACGUGAAUGGAAGCAGAGUUCUUUGCCAGGCUGCCUGCCGGAAAAGGUGUAGACAGAUGCUACUAAGACACCAAAUAGUGUC	0.327
AAAGCACACCAUGGUGGGAGAGGUGUGGCAGGCAUUGCUCGAGCAUCCUGGCUCUCCCAUGCCUCCCGCAGCCGCGGCAUUUCAUUCUACAUGGCGCUGAGCCCCAACUC	0.963
CUGCCACCCUUGACGCCCUGCUCUGGAUAACAAGACUUUGACUUGGGGAGACCUCUACUGCCUUGGACAACUUUUCUCAUGUUGAAGCCACUGCCUUCACCUUCACCUUC	0.99
CCUGUGUUACAAUUUUUCGUUUGGUCUUAGGUCUUCCCAUGGCUCCCUCUCUCCUGGACUGGUUAUCUUGUUAUUAUUGUUAAUAAUAAUUAUUAUUAUUAUUUCCCCCU	0.647
AAACAGGCCCCAAGGGCCCUGAGCCUCCAGCCCAAACCCUUAGACCUCUGGGAUCACGUUGAGUUCUAUUUAUUUAUUUACUUAUUUAUUUAUUUGUACCCACCCUUCCC	0.39
AUUUGGACUGUGUGAUUGUGCCUCAGACACUAGACCUCUUCCAGAUGGUUAGGUUGUUCUGUAGACUGGCAAUGAGAUUAGAAGUUCCUAGCUUCAGAUAAAGAUGAAAG	0.296

A few entries again (set 1):
Strand	log2 enrichment
UCCUCAAGUCCUGUGCUACACAUCGUAUGUACCGAAUCGUGUGUGUGUGUGUAAAGUAUUAUGUUACGCCGUUCGGAUCUGCACUUCCAG	-0.00616
UGGGAGGUGGAUUUGGUUUAUUUUUUUAGCUCAUUUCCAGGGGUGGGAAUUUUUUUUUAAUAUGUGUCAUGAAUAAAGUUGUUUUUGAAA	1.68
ACAGGAAGUAAAAACAAAUGGAAAUGCUUCGGAUAGUGGCAGGGGUGGGGGUUGCUAAGGAAAGGGUGGGAUGGGAGUGGGUAAAGAGUU	0.781
